Results of several laboratories.
Lines come from different studies, so protocols differ. ± gives the spread as reported.
Organism: Plasmodium falciparum

SMILES | test | test system | setting | scale | quantity | result
CCc1nc(N)nc(N)c1-c1ccc(Cl)cc1 | parasite growth, parasite reduction ratio | 3D7 | – | – | EC50 | 27 nM
COCC(=O)N1CCCC(C)(C(=O)NCc2nc(-c3ccccc3)cs2)C1 (racemic) | SYBR Green growth | asexual blood-stage parasites, 3D7 | 72 h | – | EC50 | > 5000 nM
CCOCCOc1ccnc2ccc(-c3ccc(S(=O)(=O)N4CCOCC4)cc3)cc12 | parasite growth, SYBR Green | D6 | – | – | EC50 | 3900 nM
N#Cc1ccc(-c2csc(CNC(=O)[C@H]3CCCN(C(=O)COC4CC4)C3)n2)cc1 | SYBR Green growth | asexual blood-stage parasites, 3D7 | 72 h | – | EC50 | 7.7 ± 0.81 nM
CNS(=O)(=O)c1ccccc1Nc1nc(Nc2cc(OC)c(OC)cc2C)ncc1Br | schizont egress, Nluc release | Hyp1-Nluc | 10 x growth EC50, 4 h | – | inhibition | 89.3%
O=S(=O)(c1ccc(-c2ccc3nccc(Nc4cccnc4)c3c2)cc1)N1CCOCC1 | parasite growth, SYBR Green | TM91C235 | – | – | EC50 | 730 nM
COc1cc(OC)c(CCNC(=O)c2cn3cc(-c4cc(OCC(=O)O)ccc4OC)nc3s2)c(OC)c1 | nanoluciferase readout | 3D7 Hyp1-Nluc | 20 µM, 72 h | relative to: DMSO | parasite growth | 3.42%
COCC(=O)N1CCC[C@H](C(=O)NCc2nc(-c3cnn(C)c3)cs2)C1 | parasite growth, SYBR Green | 3D7, asexual blood stage | 72 h | – | EC50 | 870 ± 210 nM
O=S(=O)(c1ccc(-c2ccc3ncccc3c2)cc1)N1CCOCC1 | parasite growth, SYBR Green | D6 | – | – | EC50 | > 20000 nM
Cn1cc(-c2cnc3[nH]cc(-c4cn(Cc5cccc(F)c5F)nn4)c3c2)cn1 | invasion and early ring development | Hyp1-Nluc | 10 x growth EC50, 4 h | – | inhibition | 29.9%

Some of these lines once more:
SMILES | test | test system | setting | scale | quantity | result
CCOCCOc1ccnc2ccc(-c3ccc(S(=O)(=O)N4CCOCC4)cc3)cc12 | parasite growth, SYBR Green | D6 | – | – | EC50 | 3900 nM
